Assay results pooled from the literature.
A part holds a random share of what one study measured. “And” joins repeats or separate records; there may be more than shown.
UniProt Q9NRP7, sequence (whole entry, looked up): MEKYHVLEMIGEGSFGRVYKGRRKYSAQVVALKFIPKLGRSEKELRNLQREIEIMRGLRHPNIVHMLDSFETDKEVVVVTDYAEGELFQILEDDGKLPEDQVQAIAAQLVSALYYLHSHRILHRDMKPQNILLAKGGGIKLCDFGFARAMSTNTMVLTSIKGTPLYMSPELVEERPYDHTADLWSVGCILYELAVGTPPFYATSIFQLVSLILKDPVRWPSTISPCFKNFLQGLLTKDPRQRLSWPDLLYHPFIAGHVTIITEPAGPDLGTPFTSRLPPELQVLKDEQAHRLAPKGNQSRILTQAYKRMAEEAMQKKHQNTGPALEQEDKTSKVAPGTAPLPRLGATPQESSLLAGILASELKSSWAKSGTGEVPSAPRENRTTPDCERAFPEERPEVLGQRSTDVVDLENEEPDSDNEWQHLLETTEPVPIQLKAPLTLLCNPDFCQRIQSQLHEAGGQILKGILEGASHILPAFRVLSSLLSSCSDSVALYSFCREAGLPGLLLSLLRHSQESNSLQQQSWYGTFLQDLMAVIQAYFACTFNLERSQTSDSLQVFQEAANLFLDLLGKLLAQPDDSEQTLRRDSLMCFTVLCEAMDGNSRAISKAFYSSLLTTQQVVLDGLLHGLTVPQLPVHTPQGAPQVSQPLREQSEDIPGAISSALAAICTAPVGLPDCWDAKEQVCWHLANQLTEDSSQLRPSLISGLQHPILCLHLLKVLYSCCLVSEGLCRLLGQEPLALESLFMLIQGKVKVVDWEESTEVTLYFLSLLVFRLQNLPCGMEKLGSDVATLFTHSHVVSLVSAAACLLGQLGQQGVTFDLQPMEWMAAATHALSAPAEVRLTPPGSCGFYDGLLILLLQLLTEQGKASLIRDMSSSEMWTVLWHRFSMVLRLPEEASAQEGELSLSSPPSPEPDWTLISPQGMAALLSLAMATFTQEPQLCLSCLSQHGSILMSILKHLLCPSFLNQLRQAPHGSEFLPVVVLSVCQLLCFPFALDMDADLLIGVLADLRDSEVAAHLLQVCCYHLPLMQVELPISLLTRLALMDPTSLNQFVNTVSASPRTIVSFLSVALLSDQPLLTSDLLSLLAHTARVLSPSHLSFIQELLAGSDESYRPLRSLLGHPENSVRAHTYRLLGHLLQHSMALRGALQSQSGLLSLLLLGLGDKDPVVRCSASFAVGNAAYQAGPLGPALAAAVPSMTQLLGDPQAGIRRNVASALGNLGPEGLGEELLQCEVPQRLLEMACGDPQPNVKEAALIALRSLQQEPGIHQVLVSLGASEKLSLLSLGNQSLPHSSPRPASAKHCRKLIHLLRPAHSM
UniProt P07949, sequence (whole entry, unmodified, looked up): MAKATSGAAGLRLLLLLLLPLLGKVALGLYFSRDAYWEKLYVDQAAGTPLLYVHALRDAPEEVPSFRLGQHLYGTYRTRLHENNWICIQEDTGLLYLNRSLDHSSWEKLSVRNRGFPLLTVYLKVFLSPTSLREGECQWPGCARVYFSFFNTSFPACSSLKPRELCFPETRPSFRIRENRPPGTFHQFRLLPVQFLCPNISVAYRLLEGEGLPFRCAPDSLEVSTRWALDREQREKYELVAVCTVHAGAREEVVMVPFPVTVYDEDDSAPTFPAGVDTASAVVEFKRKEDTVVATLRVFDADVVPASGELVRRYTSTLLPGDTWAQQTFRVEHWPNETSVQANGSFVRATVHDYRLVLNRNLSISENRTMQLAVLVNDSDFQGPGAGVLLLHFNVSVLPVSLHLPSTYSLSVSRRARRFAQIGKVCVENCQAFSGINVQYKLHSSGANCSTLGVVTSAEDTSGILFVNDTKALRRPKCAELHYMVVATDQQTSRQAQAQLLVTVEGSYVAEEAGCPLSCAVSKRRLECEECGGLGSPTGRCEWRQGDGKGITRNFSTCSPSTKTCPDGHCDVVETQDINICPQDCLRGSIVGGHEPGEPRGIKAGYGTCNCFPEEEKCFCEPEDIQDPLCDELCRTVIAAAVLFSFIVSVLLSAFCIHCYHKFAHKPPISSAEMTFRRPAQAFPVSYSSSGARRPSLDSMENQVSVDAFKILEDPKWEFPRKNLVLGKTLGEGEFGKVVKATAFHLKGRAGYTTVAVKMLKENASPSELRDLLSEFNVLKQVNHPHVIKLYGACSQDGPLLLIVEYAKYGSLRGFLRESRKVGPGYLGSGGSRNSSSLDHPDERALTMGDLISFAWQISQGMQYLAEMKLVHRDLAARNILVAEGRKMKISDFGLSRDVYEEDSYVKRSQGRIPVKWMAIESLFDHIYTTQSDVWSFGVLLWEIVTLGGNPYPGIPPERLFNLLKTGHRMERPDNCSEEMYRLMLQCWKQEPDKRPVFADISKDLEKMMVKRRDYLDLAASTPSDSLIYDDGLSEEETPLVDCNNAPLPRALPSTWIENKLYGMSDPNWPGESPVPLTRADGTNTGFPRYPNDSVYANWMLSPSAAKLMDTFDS
UniProt Q13188, sequence (whole entry, looked up): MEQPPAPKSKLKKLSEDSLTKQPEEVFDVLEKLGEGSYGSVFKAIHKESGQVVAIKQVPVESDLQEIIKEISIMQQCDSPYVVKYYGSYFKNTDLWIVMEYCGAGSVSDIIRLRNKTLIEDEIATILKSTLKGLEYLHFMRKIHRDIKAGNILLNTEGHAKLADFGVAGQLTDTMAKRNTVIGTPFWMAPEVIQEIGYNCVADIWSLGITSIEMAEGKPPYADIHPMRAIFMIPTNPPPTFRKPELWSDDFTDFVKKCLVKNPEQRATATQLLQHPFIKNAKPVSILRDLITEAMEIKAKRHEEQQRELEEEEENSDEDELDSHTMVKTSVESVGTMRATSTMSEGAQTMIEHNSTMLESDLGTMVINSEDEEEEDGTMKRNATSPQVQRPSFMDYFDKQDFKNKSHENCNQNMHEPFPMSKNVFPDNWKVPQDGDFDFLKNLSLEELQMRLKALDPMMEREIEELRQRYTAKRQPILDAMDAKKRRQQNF
UniProt P06239, sequence (whole entry, looked up): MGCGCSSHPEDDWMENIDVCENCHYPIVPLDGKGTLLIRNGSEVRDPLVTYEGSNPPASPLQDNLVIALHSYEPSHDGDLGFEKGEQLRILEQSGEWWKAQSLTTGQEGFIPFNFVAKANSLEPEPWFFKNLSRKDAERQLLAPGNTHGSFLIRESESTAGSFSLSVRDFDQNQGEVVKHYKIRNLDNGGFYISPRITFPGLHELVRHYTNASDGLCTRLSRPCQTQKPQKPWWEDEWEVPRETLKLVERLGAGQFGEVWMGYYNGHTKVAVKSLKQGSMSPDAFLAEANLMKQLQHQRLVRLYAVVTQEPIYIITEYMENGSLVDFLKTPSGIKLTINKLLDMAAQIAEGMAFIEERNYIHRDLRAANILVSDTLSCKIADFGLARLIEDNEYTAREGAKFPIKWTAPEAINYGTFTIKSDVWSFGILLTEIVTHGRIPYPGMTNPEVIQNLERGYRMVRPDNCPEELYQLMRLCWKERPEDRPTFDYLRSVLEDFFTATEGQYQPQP
UniProt Q9NSY1, sequence (whole entry, looked up): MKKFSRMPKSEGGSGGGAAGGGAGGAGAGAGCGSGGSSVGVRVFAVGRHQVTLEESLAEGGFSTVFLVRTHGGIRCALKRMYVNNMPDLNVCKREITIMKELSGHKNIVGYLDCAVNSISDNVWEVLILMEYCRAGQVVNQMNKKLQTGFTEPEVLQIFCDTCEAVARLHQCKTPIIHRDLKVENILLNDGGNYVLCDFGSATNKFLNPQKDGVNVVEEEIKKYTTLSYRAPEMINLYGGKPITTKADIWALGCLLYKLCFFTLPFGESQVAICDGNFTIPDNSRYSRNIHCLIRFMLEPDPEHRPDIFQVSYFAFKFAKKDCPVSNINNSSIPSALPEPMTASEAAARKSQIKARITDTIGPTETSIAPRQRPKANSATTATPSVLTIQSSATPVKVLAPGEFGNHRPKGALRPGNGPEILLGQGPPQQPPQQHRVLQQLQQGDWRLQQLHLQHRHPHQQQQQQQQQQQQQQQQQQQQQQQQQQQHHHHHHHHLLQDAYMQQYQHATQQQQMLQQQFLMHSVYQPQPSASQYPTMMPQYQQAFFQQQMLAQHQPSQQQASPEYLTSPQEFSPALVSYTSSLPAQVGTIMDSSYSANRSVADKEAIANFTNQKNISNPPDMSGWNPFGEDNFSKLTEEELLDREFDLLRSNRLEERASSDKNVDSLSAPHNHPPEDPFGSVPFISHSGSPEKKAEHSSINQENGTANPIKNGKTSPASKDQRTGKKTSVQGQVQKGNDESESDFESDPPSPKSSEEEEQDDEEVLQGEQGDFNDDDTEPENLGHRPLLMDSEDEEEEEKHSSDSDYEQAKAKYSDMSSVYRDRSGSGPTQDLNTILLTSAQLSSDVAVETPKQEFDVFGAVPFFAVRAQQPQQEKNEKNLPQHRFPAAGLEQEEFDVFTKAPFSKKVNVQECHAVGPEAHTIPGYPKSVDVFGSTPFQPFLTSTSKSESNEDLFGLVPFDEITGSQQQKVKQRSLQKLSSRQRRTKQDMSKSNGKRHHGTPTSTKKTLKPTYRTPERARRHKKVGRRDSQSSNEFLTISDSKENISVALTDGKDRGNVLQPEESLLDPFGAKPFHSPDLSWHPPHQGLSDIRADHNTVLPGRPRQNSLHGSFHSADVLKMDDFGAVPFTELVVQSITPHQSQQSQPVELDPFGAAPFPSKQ

Series 1
SMILES: Cc1ncsc1-c1ccc(C(CO)NC(=O)C2CC(O)CN2C(=O)C(C(C)C)n2cc(-c3ccc(COc4c(-c5c(C)c(F)cc6[nH]ncc56)c(C5CC5)cc5c(N6CC7CC6CN7)nc(OC6CCOCC6)nc45)cc3)nn2)cc1 (stereo not drawn)
The body weight was 28.3 g and 25.4 g and 24.2 g (mouse, PK-59 xenograft; 10 mg/kg, day 10).
The body weight was 24.9 g and 25.4 g and 25.2 g and 27.8 g and 24.4 g (mouse, PK-59 xenograft; 3 mg/kg, day 7).
mouse, PK-59 xenograft; 10 mg/kg, day 7 — body weight: 24.7 g and 24.8 g and 26 g and 28.2 g.
The body weight was 17.7 g and 18 g and 20.5 g and 19.9 g and 18.3 g (mouse, HT-29 xenograft; sc, 30 mg/kg once daily, day 1).
For mouse, A-375 xenograft; sc, 30 mg/kg once daily, day 8: body weight read 17.9 g and 19.9 g and 19 g and 18.9 g.
For mouse, PK-59 xenograft; 0.3 mg/kg, day 4: body weight read 24.1 g and 24.6 g and 25.1 g.
For mouse, HT-29 xenograft; sc, 30 mg/kg once daily, day 3: body weight read 18.4 g and 19.1 g and 18.6 g and 20.6 g and 21.2 g.
For mouse, lung LXFA sample A PDX; 10 mg/kg twice weekly, day 13: body weight read 29.9 g and 26.5 g and 28.6 g.
It gave 29 g and 22.9 g and 23.6 g and 25.4 g for body weight (mouse, GP5d xenograft; 30 mg/kg once weekly, day 4).
For mouse, lung LXFA sample B PDX; 10 mg/kg twice weekly, day 11: body weight read 26.6 g.
The body weight was 28.2 g and 24.1 g and 24.7 g and 23.6 g and 23.4 g (mouse, PK-59 xenograft; 1 mg/kg, day 0).

Series 2
SMILES: CC[C@@]1(c2cccc(-c3c(F)cncc3OC)c2)C2=C(Nc3n[nH]cc31)[C@H](F)C(C)(C)CC2=O (single isomer, unassigned)
Tested at: 1 µM
For CIT (Homo sapiens, UniProt O14578); binding, competition with immobilised ligand: remaining binding read 96%.
The remaining binding was 100% (STK36 (Homo sapiens, UniProt Q9NRP7); binding, competition with immobilised ligand).
It gave 97% for remaining binding (LCK (Homo sapiens, UniProt P06239); kinase binding, KINOMEscan; baseline: DMSO control).
For CDPK1 (Plasmodium falciparum, UniProt P62344); kinase binding, KINOMEscan; baseline: DMSO control: remaining binding read 61%.
The remaining binding was 77% (MET (Homo sapiens, UniProt P08581, M1250T); kinase binding, KINOMEscan; baseline: DMSO control).
It gave 66% for remaining binding (BMPR2 (Homo sapiens, UniProt Q13873); kinase binding, KINOMEscan; baseline: DMSO control).
The remaining binding was 100% (Ribosomal protein S6 kinase alpha-1, N-terminal kinase domain (RPS6KA1, Homo sapiens, UniProt Q15418); kinase binding, KINOMEscan; baseline: DMSO control).
The remaining binding was 71% (HCK (Homo sapiens, UniProt P08631); binding, competition with immobilised ligand).
The remaining binding was 100% (FGFR3 (Homo sapiens, UniProt P22607, G697C); kinase binding, KINOMEscan; baseline: DMSO control).
The remaining binding was 100% (EGFR (Homo sapiens, UniProt P00533); kinase binding, KINOMEscan; baseline: DMSO control).
CSK (Homo sapiens, UniProt P41240); kinase binding, KINOMEscan; baseline: DMSO control — remaining binding: 96%.
RET (Homo sapiens, UniProt P07949, V804L); kinase binding, KINOMEscan; baseline: DMSO control — remaining binding: 88%.
STK3 (Homo sapiens, UniProt Q13188); kinase binding, KINOMEscan; baseline: DMSO control — remaining binding: 100%.
For MAP4K2 (Homo sapiens, UniProt Q12851); binding, competition with immobilised ligand: remaining binding read 72%.
The remaining binding was 80% (WNK3 (Homo sapiens, UniProt Q9BYP7); kinase binding, KINOMEscan; baseline: DMSO control).
Cyclin-dependent kinase 4, with cyclin D1 (CDK4, Homo sapiens, UniProt P11802); kinase binding, KINOMEscan; baseline: DMSO control — remaining binding: 63%.
It gave 62% for remaining binding (BMP2K (Homo sapiens, UniProt Q9NSY1); kinase binding, KINOMEscan; baseline: DMSO control).
MAPK13 (Homo sapiens, UniProt O15264); kinase binding, KINOMEscan; baseline: DMSO control — remaining binding: 100%.

Series 3
Structure (SMILES): CC(C)(C)c1ccc(Oc2ccc3c(c2)OC(O)(C(=O)O)C(=O)N3Cc2ccccc2)cc1 (stereo not drawn)
Organism: Arabidopsis thaliana
Strain: Col-0
100 µg/mL, seed germination, repetition mean — hypocotyl length: 1.24 cm.
The hypocotyl length was 1.63 cm and 1.62 cm and 1.68 cm (50 µg/mL, seed germination, single repetition).
For 50 µg/mL, seed germination, repetition mean: hypocotyl length read 1.64 cm.
It gave 1.86 cm for hypocotyl length (12.5 µg/mL, seed germination, repetition mean).
3.125 µg/mL, seed germination, repetition mean — hypocotyl length: 2.3 cm.
The hypocotyl length was 1.73 cm (25 µg/mL, seed germination, repetition mean).
The hypocotyl length was 2 cm and 1.78 cm and 1.82 cm and 1.83 cm (12.5 µg/mL, seed germination, single repetition).
3.125 µg/mL, seed germination, single repetition — hypocotyl length: 2.35 cm and 2.25 cm and 2.26 cm and 2.34 cm.
100 µg/mL, seed germination, single repetition — hypocotyl length: 1.25 cm and 1.26 cm and 1.23 cm and 1.21 cm and 1.24 cm.

Series 4
SMILES: Cc1ccc(O)c(C)c1-c1cnc2[nH]c(-c3cnc(N4CCC5(CC4)CC(N4CCN(c6ccc(NC7CCC(=O)NC7=O)cc6F)CC4)CO5)nc3)cc2c1C#N (stereo not drawn)
PKMYT1: Membrane-associated tyrosine- and threonine-specific cdc2-inhibitory kinase (PKMYT1, Homo sapiens, UniProt Q99640)
UniProt Q99640, sequence (whole entry, looked up): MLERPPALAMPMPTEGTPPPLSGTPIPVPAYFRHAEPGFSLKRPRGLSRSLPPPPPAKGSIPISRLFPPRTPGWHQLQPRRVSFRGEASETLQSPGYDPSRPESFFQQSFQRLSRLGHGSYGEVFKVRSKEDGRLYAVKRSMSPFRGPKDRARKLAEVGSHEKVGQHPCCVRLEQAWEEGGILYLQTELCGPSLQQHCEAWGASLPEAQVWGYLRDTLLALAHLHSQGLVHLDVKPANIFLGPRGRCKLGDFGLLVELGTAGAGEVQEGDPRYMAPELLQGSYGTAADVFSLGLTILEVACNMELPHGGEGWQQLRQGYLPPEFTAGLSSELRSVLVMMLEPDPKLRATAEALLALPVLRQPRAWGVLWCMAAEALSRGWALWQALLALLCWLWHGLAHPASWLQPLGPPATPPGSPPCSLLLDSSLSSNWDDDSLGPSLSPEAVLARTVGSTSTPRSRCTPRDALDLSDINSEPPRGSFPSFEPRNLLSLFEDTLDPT
PKMYT1; 1 µM — inhibition: 101%.
For PKMYT1; 0.000152 µM: inhibition read 1.57%.
The inhibition was 9.1% (MDA-MB-157; refers to: CDK1 phospho-Thr14; 12.35 nM).
For HCC1599; refers to: CDK1 phospho-Thr14; 333.33 nM: inhibition read 65.4%.
For MDA-MB-157; refers to: CDK1 phospho-Thr14; 4.12 nM: inhibition read -10.4%.
HCC1599; refers to: CDK1 phospho-Thr14; 12.35 nM — inhibition: 14.1%.
HuCCT-1; refers to: CDK1 phospho-Thr14; 0.0169 nM — inhibition: 6.5%.
The inhibition was 2.45% (PKMYT1; cell-free assay, inhibitor, TR-FRET; 51 pM).
HuCCT-1; refers to: CDK1 phospho-Thr14; 0.05 nM — inhibition: 10.1%.
It gave 10.8% for inhibition (HCC1599; refers to: CDK1 phospho-Thr14; 4.12 nM).

Repeated from above (series 4):
It gave 10.8% for inhibition (HCC1599; refers to: CDK1 phospho-Thr14; 4.12 nM).
For HCC1599; refers to: CDK1 phospho-Thr14; 333.33 nM: inhibition read 65.4%.
For MDA-MB-157; refers to: CDK1 phospho-Thr14; 4.12 nM: inhibition read -10.4%.
HCC1599; refers to: CDK1 phospho-Thr14; 12.35 nM — inhibition: 14.1%.
HuCCT-1; refers to: CDK1 phospho-Thr14; 0.05 nM — inhibition: 10.1%.
The inhibition was 2.45% (PKMYT1; cell-free assay, inhibitor, TR-FRET; 51 pM).
